# Measured values from different studies.
# Protocols differ between the studies behind these lines. Numbers after ± are the reported error.
SMILES,assay,system,setting,endpoint,result
CCCC[C@H](NC(=O)CN1CCC(NC(=O)CN2CCC(NC(=O)CN3CCN(CC(=O)O)CCN(CC(=O)O)CCN(CC(=O)O)CC3)CC2)CC1)C(=O)N[C@H]1CC(=O)NCCCC[C@@H](C(N)=O)NC(=O)[C@H](Cc2c[nH]c3ccccc23)NC(=O)[C@H](CCCNC(=N)N)NC(=O)[C@@H](Cc2ccccc2)NC(=O)[C@H](Cc2c[nH]cn2)NC1=O [gallium-68 labelled],,"C57BL/6J mice male B16-F10 tumour, pancreas","1 h post injection, unblocked",tissue uptake,0.1 %ID/g
C=CCn1cnc2c(NCc3ccc(C)s3)nc(N[C@H](CC)CO)nc21,,,,pKa2,-0.26
CN(C)C(CNC(=O)Nc1cc(C(F)(F)F)ccc1N1CCOCC1)c1ccncc1 (stereo not shown),,"mouse, serum","intraperitoneal, 120 mg/kg single dose",serum direct bilirubin,0 mg/dL
CC(C)[C@H](NC(=O)CNC(=O)[C@H](CCC(N)=O)NC(=O)[C@H](C)N)C(=O)O,,human,3 mg/kg single dose,discontinuation due to adverse events,0%
COc1cc(NC(=O)C(=O)c2c(C)n(Cc3ccc(Cl)cc3)c3ccc(C)cc23)ccn1,,"cynomolgus monkey, plasma","oral, 10 mg/kg",half-life,18.7 h
CC(C)[C@H]1NC(=O)C[C@H]2/C=C/CCSSC[C@@H](NC1=O)C(=O)N[C@H](Cc1cccc3ccccc13)C(=O)NCC(=O)O2,,"nude mouse, blood","intraperitoneal, 4 mg/kg",half-life,1 h
CC[C@H](C)[C@H](NC(=O)[C@H](N)Cc1ccc(O)cc1)C(=O)N[C@H]1CSSC[C@@H](C(=O)N(C)[C@H](C(N)=O)[C@@H](C)CC)NC(=O)[C@H](CCCNC(=N)N)NC(=O)[C@H](Cc2c[nH]cn2)NC(=O)[C@H](C)NC(=O)CN(C)C(=O)[C@H](Cc2c[nH]c3ccccc23)NC(=O)[C@H](CC(=O)O)NC(=O)[C@H](CCC(N)=O)NC(=O)[C@H](Cc2cn(C)c3ccccc23)NC(=O)[C@H](C(C)C)NC1=O,UPLC-MS,"cynomolgus monkey, haemodialysis, plasma","intravenous, 2 mg/kg bolus plus 4 µg/kg/min infusion, first 6 h of 4-h haemodialysis",plasma concentration,5.2 µM
CC1N=C(c2ccccc2F)c2cc(Br)ccc2-n2cnc(C(=O)OC3OC(CO)C(O)C(O)C3O)c21 (stereo not shown),LC-MS/MS,"Swiss Webster mouse, female, urine","oral, 750 µg parent drug, 24 to 48 h",cumulative excretion,0.3 ± 0.3%
CC[C@H](C)[C@H](NC(=O)[C@H](CCC(=O)O)NC(=O)[C@H](CCC(=O)O)NC(=O)[C@H](Cc1ccccc1)NC(=O)[C@H](CC(=O)O)NC(=O)CNC(=O)[C@H](CC(N)=O)NC(=O)CNC(=O)CNC(=O)CNC(=O)CNC(=O)[C@@H]1CCCN1C(=O)[C@H](CCCNC(=N)N)NC(=O)[C@@H]1CCCN1C(=O)[C@H](N)Cc1ccccc1)C(=O)N1CCC[C@H]1C(=O)N[C@@H](CCC(=O)O)C(=O)N[C@@H](CCC(=O)O)C(=O)N[C@@H](Cc1ccc(O)cc1)C(=O)N[C@@H](CC(C)C)C(=O)O,,"male human, plasma","intravenous, 0.5 mg/kg, single dose, healthy volunteers",MRT,0.4 h
CC[C@H](C)C(=O)N1CCC(NC(=O)Nc2ccc(OC(F)(F)F)c(F)c2)CC1,,healthy volunteers,"oral, 8 mg single dose",subjects with headache TEAE,0%

# Some of these lines once more:
SMILES,assay,system,setting,endpoint,result
CC(C)[C@H]1NC(=O)C[C@H]2/C=C/CCSSC[C@@H](NC1=O)C(=O)N[C@H](Cc1cccc3ccccc13)C(=O)NCC(=O)O2,,"nude mouse, blood","intraperitoneal, 4 mg/kg",half-life,1 h
